Measured values of several laboratories.
Protocols differ between the studies behind these lines. Numbers after ± are the reported error.
Organism: Escherichia coli

| SMILES | assay | test system | setting | scale | MIC |
| --- | --- | --- | --- | --- | --- |
| CCCCCCC/C=C/C(=O)N1C(=O)/C(=C(/C)O)C(=O)C1Cc1ccc(O)cc1 (centres unmarked) | – | K12 ΔtolC | – | – | 50 µg/mL |
| N=C(N)NCCC[C@H](NC(=O)[C@H](Cc1c[nH]c2ccccc12)NC(=O)[C@H](CCCNC(=N)N)NC(=O)[C@@H](N)Cc1c[nH]c2ccccc12)C(=O)N[C@@H](Cc1ccccc1)C(=O)N[C@@H](CCC(N)=O)C(=O)N[C@@H](Cc1ccccc1)C(=O)N[C@@H](CCC(N)=O)C(=O)N[C@@H](Cc1ccccc1)C(=O)N[C@@H](CCCCN)C(N)=O | broth microdilution, optical density | – | – | – | 18 µM |
| CC[C@H](C)[C@H](NC(=O)[C@H](CCCCN)NC(=O)[C@H](CCCCN)NC(=O)CNC(=O)[C@H](CCCCN)NC(=O)[C@H](CC(C)C)NC(=O)[C@H](CCCCN)NC(=O)[C@H](CCCNC(=N)N)NC(=O)[C@@H](NC(=O)[C@H](CC(C)C)NC(=O)[C@H](CCCNC(=N)N)NC(=O)[C@@H](N)CCCNC(=N)N)[C@@H](C)CC)C(=O)N[C@@H](Cc1ccc(O)cc1)C(=O)N[C@@H](CC(C)C)C(=O)N[C@@H](Cc1ccc(O)cc1)C(=O)N[C@@H](Cc1ccccc1)C(=O)N[C@@H](CCCCN)C(=O)N[C@@H](CC(C)C)C(=O)N[C@@H](CCC(N)=O)C(=O)N[C@@H](CC(C)C)C(=O)N[C@@H](CC(C)C)C(=O)N[C@@H](CCCCN)C(=O)N[C@@H](CCCCN)C(N)=O | broth microdilution | KCTC 1682, Mueller-Hinton broth | added: NH4Cl 6 µM | – | 16 µM |
| CC1(C)S[C@@H]2[C@H](NC(=O)[C@H](N)c3ccc(O)cc3)C(=O)N2[C@H]1C(=O)O | broth microdilution | BL21(DE3), Mueller-Hinton broth | 20 h | – | 1.59 µM |
| CC[C@H](C)[C@H](NC(=O)[C@H](CCCNC(=N)N)NC(=O)[C@H](CCC(N)=O)NC(=O)[C@@H](NC(=O)[C@@H](NC(=O)[C@H](CCCNC(=N)N)NC(=O)[C@@H](N)CCCCN)[C@@H](C)CC)C(C)C)C(=O)N[C@@H](CCCCN)C(=O)N[C@@H](CC(=O)O)C(=O)N[C@@H](Cc1ccccc1)C(=O)N[C@@H](CC(C)C)C(=O)N[C@@H](CCCNC(=N)N)C(N)=O | broth microdilution | K12 | 16 h, 37 °C | – | 64 ± 22 µM |
| CC[C@H](C)[C@H](NC(=O)[C@H](CCCCN)NC(=O)[C@H](CC(=O)O)NC(=O)[C@H](CC(C)C)NC(=O)[C@@H](NC(=O)[C@H](CC(N)=O)NC(=O)[C@H](CC(C)C)NC(=O)[C@@H](NC(=O)[C@H](Cc1ccccc1)NC(=O)[C@H](CCCCN)NC(=O)[C@H](CCCCN)NC(=O)CNC(=O)[C@H](C)NC(=O)[C@H](CC(N)=O)NC(=O)[C@H](CCCCN)NC(=O)[C@H](Cc1ccccc1)NC(=O)[C@H](CC(N)=O)NC(=O)[C@H](CCC(=O)O)NC(=O)[C@H](Cc1c[nH]c2ccccc12)NC(=O)[C@H](CC(C)C)NC(=O)[C@@H](N)CO)[C@@H](C)CC)[C@@H](C)CC)C(=O)N[C@@H](CCCNC(=N)N)C(N)=O | – | ATCC 8739 | overnight, 37 °C, added: 1 mM MgCl2 | – | 2 µM |
| CC[C@H](C)CCCCC(=O)N[C@@H](CCN)C(=O)N[C@H](C(=O)N[C@@H](CCN)C(=O)N[C@H]1CCNC(=O)[C@H]([C@@H](C)O)NC(=O)[C@H](CCN)NC(=O)[C@H](CCN)NC(=O)[C@H](CC(C)C)NC(=O)[C@@H](Cc2ccccc2)NC(=O)[C@H](CCN)NC1=O)[C@@H](C)O | – | ATCC 25922 | 18 h, 37 °C, 0.3 mM ZnSO4 LB | – | 2 µg/mL |
| C[C@@H](O)[C@H]1C(=O)N2C(C(=O)O)=C(SCCN=CN)C[C@H]12 | – | NCCP 16044 carbapenem-resistant, Mueller-Hinton broth | 16 h, 37 °C | – | 8 µM |
| COc1cc(C(=O)Nc2ccc(C(=O)N[C@@H](CC(N)=O)C(=O)Nc3ccc(C(=O)Nc4ccc(C(=O)Nc5ccc(C(=O)O)cc5)c(O)c4OC(C)C)cc3)cc2)ccc1C#N | – | K12 ΔtolC | – | – | < 0.03 µg/mL |
| CC(C)(C)Oc1ccc(CC2NC(=O)C(C(=O)NC(C(=O)NC3C(=O)N4C3SC(C)(C)C4C(=O)O)c3ccccc3)=C2O)cc1 (centres unmarked) | broth microdilution | JW0790-2 fiu deletion mutant | ferric iron uptake gene | – | 25 µg/mL |
| CC[C@@H](C)[C@@H](N)C(=O)N[C@@H](C(=O)N[C@H](Cc1ccc(O)cc1)C(=O)N[C@@H](C(=O)N[C@H](CCN)C(=O)N[C@H](CC(C)C)C(=O)N[C@H](CO)C(=O)N[C@H](CCN)C(=O)N[C@@H](C(=O)N[C@H](CCN)C(=O)N[C@H](Cc1c[nH]cn1)C(=O)N[C@H](CCN)C(=O)N[C@H](C)C(=O)N[C@H](CCN)C(=O)N[C@H](CCN)C(N)=O)[C@H](C)CC)[C@H](C)CC)[C@H](C)CC | broth microdilution | CDC 0001, Mueller-Hinton broth | – | – | 2 µg/mL |
| CCCCCC(=O)N[C@@H](CCCNC(=N)N)C(=O)N[C@@H](CCCNC(=N)N)C(=O)N[C@@H](CCCNC(=N)N)C(=O)N[C@@H](CCCNC(=N)N)C(=O)N[C@H](C(=O)N[C@@H](CC(C)C)C(=O)N[C@H](C(=O)N[C@@H](CCCNC(=N)N)C(=O)N[C@@H](CCCNC(=N)N)C(=O)N[C@H](C(=O)N[C@@H](CC(C)C)C(=O)N[C@@H](CCCNC(=N)N)C(=O)N[C@@H](CC(C)C)C(=O)N[C@@H](CCCNC(=N)N)C(=O)N[C@@H](CO)C(=O)N[C@@H](CO)C(=O)N[C@@H](C)C(=O)N[C@@H](Cc1ccc(O)cc1)C(N)=O)C(C)C)[C@@H](C)CC)[C@@H](C)CC | checkerboard | – | 24 h, 37 °C, alone, rifampicin plate | – | 8 µM |
| C[C@@H](O)[C@H]1C(=O)N2C(C(=O)O)=C(S[C@@H]3CN[C@H](C(=O)N(C)C)C3)[C@H](C)[C@H]12 | – | 1191008, multidrug-resistant | – | – | 0.015 µg/mL |
| CO/N=C(\C(=O)N[C@@H]1C(=O)N2C(C(=O)O)=C(COC(C)=O)CS[C@H]12)c1csc(N)n1 | – | BL21(DE3) wild type | – | – | < 1.75 µg/mL |
| O=C(NC1CCCCC1)C(CCc1ccccc1)N(CCc1c[nH]cn1)C(=O)c1ccccc1 (centres unmarked) | – | TolC | – | – | 128 µM |
| CC[C@H](C)[C@H](NC(=O)CNC(=O)[C@H](CC(=O)O)NC(=O)[C@H](CCCNC(=N)N)NC(=O)[C@@H](NC(=O)[C@H](CC(N)=O)NC(=O)[C@H](CCCNC(=N)N)NC(=O)CNC(=O)[C@@H](NC(=O)[C@H](CCCCN)NC(=O)[C@H](CCC(=O)O)NC(=O)[C@@H](NC(=O)[C@H](CCCCN)NC(=O)[C@H](CCCCN)NC(=O)[C@H](Cc1ccccc1)NC(=O)[C@@H](NC(=O)[C@H](CCCCN)NC(=O)[C@H](Cc1c[nH]c2ccccc12)NC(=O)[C@@H](N)CCC(=O)O)[C@@H](C)CC)[C@@H](C)CC)C(C)C)C(C)C)C(=O)N[C@H](C(=O)N[C@@H](CCCCN)C(=O)N[C@@H](C)C(=O)NCC(=O)N1CCC[C@H]1C(=O)N[C@@H](C)C(=O)N[C@H](C(=O)N[C@@H](C)C(=O)N[C@H](C(=O)N[C@H](C(=O)NCC(=O)N[C@@H](CCC(N)=O)C(=O)N[C@@H](C)C(=O)N[C@@H](C)C(=O)N[C@H](C(=O)N[C@H](C(=O)N[C@H](C(=O)N[C@@H](CCCCN)C(N)=O)C(C)C)C(C)C)[C@@H](C)O)C(C)C)C(C)C)C(C)C)[C@@H](C)CC | – | KCTC 1682, Mueller-Hinton broth | 16 h, 37 °C | growth inhibition over 99% | 8 µM |
| CC1(C)S[C@@H]2[C@H](NC(=O)C(C(=O)O)c3ccccc3)C(=O)N2[C@H]1C(=O)O (some centres unmarked) | broth microdilution | Keio mutant JW2142-1 | – | – | 12.5 µg/mL |
| CC[C@H](C)[C@H](N)C(=O)N[C@@H](CC(C)C)C(=O)NCC(=O)N[C@@H](CCCNC(=N)N)C(=O)N[C@H](C(=O)N[C@@H](Cc1c[nH]c2ccccc12)C(=O)N[C@@H](CCCCN)C(=O)NCC(=O)N[C@H](C(=O)N[C@@H](CCCCN)C(=O)N[C@@H](CC(=O)O)C(=O)N[C@H](C(=O)N[C@@H](CC(C)C)C(N)=O)[C@@H](C)CC)[C@@H](C)CC)[C@@H](C)CC | broth microdilution | ATCC 25922, Mueller-Hinton broth | 16 h, 37 °C | – | 6.25 µM |
| Oc1cc(Cl)ccc1Oc1ccc(Cl)cc1Cl | – | MG1655 FabI A116V Debio-1452-NH3-resistant | – | – | 0.5 µg/mL |
| CC(C)Oc1c(NC(=O)c2ccc(NC(=O)[C@H](CC(N)=O)NC(=O)c3ccc(NC(=O)c4ccc(C#N)cc4)cc3)cc2)ccc(C(=O)N/N=C/c2c(F)cc(C(=O)O)cc2F)c1O | – | BW25113 | 18 h, 37 °C, dark-adapted state | – | 0.84 µg/mL |

A few entries again:
| SMILES | assay | test system | setting | scale | MIC |
| --- | --- | --- | --- | --- | --- |
| CCCCCC(=O)N[C@@H](CCCNC(=N)N)C(=O)N[C@@H](CCCNC(=N)N)C(=O)N[C@@H](CCCNC(=N)N)C(=O)N[C@@H](CCCNC(=N)N)C(=O)N[C@H](C(=O)N[C@@H](CC(C)C)C(=O)N[C@H](C(=O)N[C@@H](CCCNC(=N)N)C(=O)N[C@@H](CCCNC(=N)N)C(=O)N[C@H](C(=O)N[C@@H](CC(C)C)C(=O)N[C@@H](CCCNC(=N)N)C(=O)N[C@@H](CC(C)C)C(=O)N[C@@H](CCCNC(=N)N)C(=O)N[C@@H](CO)C(=O)N[C@@H](CO)C(=O)N[C@@H](C)C(=O)N[C@@H](Cc1ccc(O)cc1)C(N)=O)C(C)C)[C@@H](C)CC)[C@@H](C)CC | checkerboard | – | 24 h, 37 °C, alone, rifampicin plate | – | 8 µM |
| CC[C@H](C)[C@H](NC(=O)CNC(=O)[C@H](CC(=O)O)NC(=O)[C@H](CCCNC(=N)N)NC(=O)[C@@H](NC(=O)[C@H](CC(N)=O)NC(=O)[C@H](CCCNC(=N)N)NC(=O)CNC(=O)[C@@H](NC(=O)[C@H](CCCCN)NC(=O)[C@H](CCC(=O)O)NC(=O)[C@@H](NC(=O)[C@H](CCCCN)NC(=O)[C@H](CCCCN)NC(=O)[C@H](Cc1ccccc1)NC(=O)[C@@H](NC(=O)[C@H](CCCCN)NC(=O)[C@H](Cc1c[nH]c2ccccc12)NC(=O)[C@@H](N)CCC(=O)O)[C@@H](C)CC)[C@@H](C)CC)C(C)C)C(C)C)C(=O)N[C@H](C(=O)N[C@@H](CCCCN)C(=O)N[C@@H](C)C(=O)NCC(=O)N1CCC[C@H]1C(=O)N[C@@H](C)C(=O)N[C@H](C(=O)N[C@@H](C)C(=O)N[C@H](C(=O)N[C@H](C(=O)NCC(=O)N[C@@H](CCC(N)=O)C(=O)N[C@@H](C)C(=O)N[C@@H](C)C(=O)N[C@H](C(=O)N[C@H](C(=O)N[C@H](C(=O)N[C@@H](CCCCN)C(N)=O)C(C)C)C(C)C)[C@@H](C)O)C(C)C)C(C)C)C(C)C)[C@@H](C)CC | – | KCTC 1682, Mueller-Hinton broth | 16 h, 37 °C | growth inhibition over 99% | 8 µM |
| CC[C@H](C)[C@H](NC(=O)[C@H](CCCCN)NC(=O)[C@H](CCCCN)NC(=O)CNC(=O)[C@H](CCCCN)NC(=O)[C@H](CC(C)C)NC(=O)[C@H](CCCCN)NC(=O)[C@H](CCCNC(=N)N)NC(=O)[C@@H](NC(=O)[C@H](CC(C)C)NC(=O)[C@H](CCCNC(=N)N)NC(=O)[C@@H](N)CCCNC(=N)N)[C@@H](C)CC)C(=O)N[C@@H](Cc1ccc(O)cc1)C(=O)N[C@@H](CC(C)C)C(=O)N[C@@H](Cc1ccc(O)cc1)C(=O)N[C@@H](Cc1ccccc1)C(=O)N[C@@H](CCCCN)C(=O)N[C@@H](CC(C)C)C(=O)N[C@@H](CCC(N)=O)C(=O)N[C@@H](CC(C)C)C(=O)N[C@@H](CC(C)C)C(=O)N[C@@H](CCCCN)C(=O)N[C@@H](CCCCN)C(N)=O | broth microdilution | KCTC 1682, Mueller-Hinton broth | added: NH4Cl 6 µM | – | 16 µM |
